Results gathered from unrelated publications.
Protocols differ between the studies behind these lines. Numbers after ± are the reported error.
U2AF2: U2AF2 148-342 (Homo sapiens, UniProt P26368)
Chain of UniProt P26368 (whole entry, looked up): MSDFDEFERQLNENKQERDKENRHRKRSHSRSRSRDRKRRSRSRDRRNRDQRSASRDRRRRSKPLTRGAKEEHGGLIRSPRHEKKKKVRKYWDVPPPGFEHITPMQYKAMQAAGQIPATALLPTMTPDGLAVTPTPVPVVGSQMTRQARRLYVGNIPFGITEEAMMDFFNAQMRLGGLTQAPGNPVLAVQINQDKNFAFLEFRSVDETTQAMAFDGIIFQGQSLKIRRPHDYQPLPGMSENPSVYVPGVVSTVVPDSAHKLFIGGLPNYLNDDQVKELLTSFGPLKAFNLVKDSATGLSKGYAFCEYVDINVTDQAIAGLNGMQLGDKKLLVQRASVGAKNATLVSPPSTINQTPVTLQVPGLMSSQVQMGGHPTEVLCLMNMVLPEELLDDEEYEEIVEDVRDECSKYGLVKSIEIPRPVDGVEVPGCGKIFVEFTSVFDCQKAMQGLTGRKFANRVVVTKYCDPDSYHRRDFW
B1: enzyme (Burkholderia cenocepacia, UniProt B4E589); chain MTGYDRQSISDTTAKILLEVQAVHFNAEKPFIFTSGWASPVYIDCRKLISYPRVRRALMEMAETTITRDIGFEQIDAVAGGETAGIPFAAWIADRMMVPMQYVRKKPKGFGRNAQIEGHLEEGSRVLLVEDLTTDSRSKINFVNALRTAGATVNHCFVLFHYNIFKESVSVLKDIDVDLHALATWWDVLRVAKASGYFETKTLDEVEKFLHAPAEWSAAHGGATAPKE
B2: rCR (Lodderomyces parapsilosis, UniProt A1X808); chain MSIPSSQYGFVFNKQSGLKLRNDLPVHKPKAGQLLLKVDAVGLCHSDLHVIYEGLDCGDNYVMGHEIAGTVAAVGDDVINYKVGDRVACVGPNGCGGCKYCRGAIDNVCKNAFGDWFGLGYDGGYQQYLLVTRPRNLSRIPDNVSADVAAASTDAVLTPYHAIKMAQVSPTSNILLIGAGGLGGNAIQVAKAFGAKVTVLDKKKEARDQAKKLGADAVYETLPESISPGSFSACFDFVSVQATFDVCQKYVEPKGVIMPVGLGAPNLSFNLGDLALREIRILGSFWGTTNDLDDVLKLVSEGKVKPVVRSAKLKELPEYIEKLRNNAYEGRVVFNP
B3: enzyme (Schizosaccharomyces pombe, UniProt P78804); chain MSTPYEPEFQQAYKEIVGSIESSKLFEVHPELKRVLPIISIPERVLEFRVTWEDDKGNCRVNTGYRVQFNSALGPYKGGLRFHPSVNLSILKFLGFEQIFKNALTGLPMGGGKGGSDFDPKGKSDNEIRRFSQAFMRQLFRYIGPQTDVPAGDIGVTGFVVMHMFGEYKRLRNEYSGVVTGKHMLTGGSNIRPEATGYGVVYYVKHMIEHRTKGAETLKGKRVAISGSGNVAQYAALKCIQEGAIVKSISDSKGVLIAKTAEGLVPEEIHEIMALKEKRASIADSASLCKKHHYIAGARPWTNVGEIDIALPCATQNEVSGEEAAALIKQGCRYVAEGSNMGSSAEAVEVFEKSRASGEGCWLAPGKAANAGGVAVSGLEMAQNAQFSTWTHAEVDAKLAGIMQNIFEQSTDVASKYCDSGSNNIPSLVDGANIAGFLKVATAMQAVGDWW
B4: enzyme (Acinetobacter baumannii, UniProt A0A5P1UDB1); chain MFIEQDIQLGYVPFPKSRAQQYRDEGCWKSQTHFQLLASLKDRFAQRVAVIQDDKQLTYQQLYDYAIHYGTYLKQQGIRETDFVLLQSPNVIEVFIVIFGLYAIGARPVFCLHGHGSYEIENIARQSRAVGFLKLCGSANESTATDVCEEFSKPNFKLWFRESIVSRSSIEASLPQLQGVAPAFNLRAQSESEDIAFLQLSGGTTGLPKLIPRTHADYIYSIEKSVDVAGLTQDTKQLVVLPVMHNFCMSSPGFLGVFYVGGTVVLSQLTHPRVCFELIEKYQIQQVSLVPAIATLWLNAESLKDYDLSSLQVVQVGGAKLLPSLAEQIIDTLQVKLQQVYGMAEGLVNFTHLDDSDQITIQTQGKKLSHLDEIRIADQDGNALPINAIGHIQTRGPYTINGYYNLPEINQRAFTQDGFYKTGDIGYLDENLNIVVTGREKEQINRSGEKITPSEIEEFILQYPSVKDVCVIGVSDDYLGERIKAIIIPKLDDSEINLKNIRKFLISKNIAHFKIPDEIEVVADFKYTHVGKVNRQKLG
B5: SCO6712 S292F (Streptomyces coelicolor, UniProt Q9XAL8); chain AKGITARTAPAGGEVRHLKMYAEKLADGQMGYGFEKGKASVPGPLIEVNEGDTLHIEFTNTMDVRASLHVHGLDYEISSDGTAMNKSDVEPGGTRTYTWRTHKPGRRDDGTWRPGSAGYWHYHDHVVGTEHGTGGIRNGLYGPVIVRRKGDVLPDATHTIVFNDMTINNRKPHTGPDFEATVGDRVEIVMITHGEYYHTFHMHGHRWADNRTGILTGPDDPSRVIDNKITGPADSFGFQIIAGEGVGAGAWMYHCHVQFHSDMGMVGLFLVKKPDGTIPGYEPHEHGGATAKSGESGEPTGGAAAHEHEH
B6: Por W677G (Rattus norvegicus, UniProt P00388); chain GDSHEDTSATMPEAVAEEVSLFSTTDMVLFSLIVGVLTYWFIFRKKKEEIPEFSKIQTTAPPVKESSFVEKMKKTGRNIIVFYGSQTGTAEEFANRLSKDAHRYGMRGMSADPEEYDLADLSSLPEIDKSLVVFCMATYGEGDPTDNAQDFYDWLQETDVDLTGVKFAVFGLGNKTYEHFNAMGKYVDQRLEQLGAQRIFELGLGDDDGNLEEDFITWREQFWPAVCEFFGVEATGEESSIRQYELVVHEDMDVAKVYTGEMGRLKSYENQKPPFDAKNPFLAAVTANRKLNQGTERHLMHLELDISDSKIRYESGDHVAVYPANDSALVNQIGEILGADLDVIMSLNNLDEESNKKHPFPCPTTYRTALTYYLDITNPPRTNVLYELAQYASEPSEQEHLHKMASSSGEGKELYLSWVVEARRHILAILQDYPSLRPPIDHLCELLPRLQARYYSIASSSKVHPNSVHICAVAVEYEAKSGRVNKGVATSWLRAKEPAGENGGRALVPMFVRKSQFRLPFKSTTPVIMVGPGTGIAPFMGFIQERAWLREQGKEVGETLLYYGCRRSDEDYLYREELARFHKDGALTQLNVAFSREQAHKVYVQHLLKRDREHLWKLIHEGGAHIYVCGDARNMAKDVQNTFYDIVAEFGPMEHTQAVDYVKKLMTKGRYSLDVGS
B7: PYCR2 R251C (Homo sapiens, UniProt Q96C36); chain MSVGFIGAGQLAYALARGFTAAGILSAHKIIASSPEMNLPTVSALRKMGVNLTRSNKETVKHSDVLFLAVKPHIIPFILDEIGADVQARHIVVSCAAGVTISSVEKKLMAFQPAPKVIRCMTNTPVVVQEGATVYATGTHALVEDGQLLEQLMSSVGFCTEVEEDLIDAVTGLSGSGPAYAFMALDALADGGVKMGLPRRLAIQLGAQALLGAAKMLLDSEQHPCQLKDNVCSPGGATIHALHFLESGGFCSLLINAVEASCIRTRELQSMADQEKISPAALKKTLLDRVKLESPTVSTLTPSSPGKLLTRSLALGGKKD
B8: proteasome subunit alpha-8 (human); sequence looked up; chain MASRYDRAITVFSPDGHLFQVEYAQEAVKKGSTAVGIRGTNIVVLGVEKKSVAKLQDERTVRKICALDDHVCMAFAVLTIFIGLTADARVVINRARVECQSHKLTVEDPVTVEYITRFIATLKQKYTQSNGRRPFGISALIVGFDDDGISRLYQTDPSGTYHAWKANAIGRSAKTVREFLEKNYTEDAIASDSEAIKLAIKALLEVVQSGGKNIELAIIRRNQPLKMFSAKEVELYVTEIEKEKEEAEKKKSKKSV
B9: enzyme (Sargassum horneri, UniProt A0A097IUG6); chain SPMAVASPSGFQKAMKTTLSSLGIDKATGITKPTTIYRNLPYPEVFKHEEQNKEGEVTKNGTFCVSTGQFTGRSPKDKYFVKQAPSDGKLDWGKINKGVASEVYKNIYDKAVKHYNTNVDKMYVFDGYCGTSPKSRKNVRIITELAWQHHFAKNMFIRPETEEEVANFVPDFTIINACKIVNEDYKELGLNSEVAVVFNVEESKAVITGTWYGGEMKKGIFSMMNYWLPLDGVMSMHCSANKGKDGDTALFFGLSGTGKTTLSADPARYLIGDDEHGWDDDGIFNFEGGCYAKTVNLSRENEPEIYDAIKRDALLENVIIKKNGEPDYADVSRTENTRVSYPIYHIDNYEPSGMGDHPKSIVFLTCDAFGVLPPVSRLSPGQAMYHFLSGYTAKVAGTERGVTEPTPNFSAGFGAAFLTLHPTVYADLLQEKLDKHGTQCFLINTGWTGGGYGVGKRMSIKATRACVDAVLDGSINKTKFTKEPVFGFEVPQELPNVPSKVLNPREAWSDKASYDATRTKLGDMFKNNFTKFVKPGMTDYTAYGPK
B10: enzyme (Mus musculus, UniProt P60334); chain MERTELLKPRTLADLIRILHELFAGDEVNVEEVQAVLEAYESNPAEWALYAKFDQYRYTRNLVDQGNGKFNLMILCWGEGHGSSIHDHTDSHCFLKLLQGNLKETLFDWPDKKSNEMIKKSERTLRENQCAYINDSIGLHRVENVSHTEPAVSLHLYSPPFDTCHAFDQRTGHKNKVTMTFHSKFGIRTPFTTSGSLENN
Chain of UniProt P13393 (whole entry, looked up): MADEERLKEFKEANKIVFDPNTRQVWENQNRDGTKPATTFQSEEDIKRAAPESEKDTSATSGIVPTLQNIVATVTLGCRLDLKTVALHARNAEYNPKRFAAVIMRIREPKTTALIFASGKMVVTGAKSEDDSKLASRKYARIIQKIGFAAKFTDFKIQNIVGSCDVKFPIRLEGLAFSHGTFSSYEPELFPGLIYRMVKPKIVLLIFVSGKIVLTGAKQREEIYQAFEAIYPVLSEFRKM
Chain of UniProt P11446 (whole entry, looked up): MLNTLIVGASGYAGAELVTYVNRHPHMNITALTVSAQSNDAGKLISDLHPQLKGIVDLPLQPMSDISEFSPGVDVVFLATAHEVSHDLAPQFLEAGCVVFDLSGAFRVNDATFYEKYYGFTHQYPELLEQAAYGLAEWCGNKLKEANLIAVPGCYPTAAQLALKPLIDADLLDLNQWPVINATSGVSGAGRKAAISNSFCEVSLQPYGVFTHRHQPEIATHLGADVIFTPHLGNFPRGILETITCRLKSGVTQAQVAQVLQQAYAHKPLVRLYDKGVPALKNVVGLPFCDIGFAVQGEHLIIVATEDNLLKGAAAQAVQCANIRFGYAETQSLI

Molecule	tested on	assay	system	conditions	scale	measurement	value
human VCP	PP6C (human)	co-immunoprecipitation, IP-MS	CYB5R4 knockout cells	concentration not given	baseline: CYB5R4 knockout over parental	log2 fold change	0.16
TCCTGAAGGGGCACCCTAGCTTGGTCCTATCGTCGTCAAGTCAATCGGTCC (dsDNA; 5'-amino-C6 primer)	SPT15 full length assumed (Saccharomyces cerevisiae, UniProt P13393)	array	double-stranded DNA, one strand shown	TBP alone		Kd	3.24 ± 0.24 nM
B1 (enzyme)	O=C(O)c1cc(=O)[nH]c(=O)[nH]1	steady-state kinetics		pH 7, room temperature, with: PRPP 5 mM		kcat	0.12 ± 0.014 s⁻¹
B2 (rCR)	O=C(CO)c1ccccc1	steady-state kinetics		pH 7, 30 °C		kcat	7.19 ± 0.31 s⁻¹
HNL E79H/G176S/H103V/K236M/N104A/T11G (Hevea brasiliensis)	CC(=O)Oc1ccc([N+](=O)[O-])cc1	steady-state kinetics		pH 7.2, 22 °C		kcat	0.035 ± 0.00283 s⁻¹
B3 (enzyme)	NC(=O)C1=CN([C@@H]2O[C@H](COP(=O)(O)OP(=O)(O)OC[C@H]3O[C@@H](n4cnc5c(N)ncnc54)[C@H](OP(=O)(O)O)[C@@H]3O)[C@@H](O)[C@H]2O)C=CC1	steady-state kinetics		pH 7, 30 °C, apparent		kcat	54 ± 2 s⁻¹
B4 (enzyme)	O=C(O)c1cccc(Cl)c1O	steady-state kinetics		pH 7.5, 37 °C, apparent		kcat	0.0123 ± 0.0003 s⁻¹
B5 (SCO6712 S292F)	CCn1c(=NN=c2sc3cc(S(=O)(=O)O)ccc3n2CC)sc2cc(S(=O)(=O)O)ccc21	steady-state kinetics		pH 7, 37 °C, NaCl 150 mM, with: O2 cosubstrate		kcat	1.7 ± 0.1 s⁻¹
argC (Escherichia coli, UniProt P11446)	N[C@@H](CCC=O)C(=O)O	steady-state kinetics		pH 7.6, apparent, with: 1 mM NADP+		kcat	0.008 ± 0.002 s⁻¹
B6 (Por W677G)	NC(=O)C1=CN([C@@H]2O[C@H](COP(=O)(O)OP(=O)(O)OC[C@H]3O[C@@H](n4cnc5c(N)ncnc54)[C@H](O)[C@@H]3O)[C@@H](O)[C@H]2O)C=CC1	steady-state kinetics		with: cytochrome c		kcat	40.2 ± 3.55 s⁻¹
B7 (PYCR2 R251C)	O=C(O)[C@@H]1CCC=N1	steady-state kinetics		pH 7.5, 37 °C, apparent, with: NADH 500 µM		kcat	3.2 ± 0.3 s⁻¹
B8 (proteasome subunit alpha-8)	CYB5R4 knockout human cells	PP6 interaction, 3xFLAG-PP6C IP-MS		concentration not given	baseline: CYB5R4 KO over parental	log2 fold change	1.08
B9 (enzyme)	Nc1ncnc2c1ncn2[C@@H]1O[C@H](COP(=O)(O)OP(=O)(O)O)[C@@H](O)[C@H]1O	steady-state kinetics		pH 6.5, 25 °C, with: 16 mM PEP		kcat	39.5 ± 0.6 s⁻¹
CCUCUAGUU (ssRNA)	U2AF2	sequencing of bound RNA	RNA	motif only		Kd	1780 nM
enzyme (Parabacteroides distasonis, UniProt A0A7L5EB83)	CC(=O)N[C@H]1[C@H](Oc2ccc([N+](=O)[O-])cc2)O[C@H](CO)[C@@H](O)[C@@H]1O[C@@H]1O[C@H](CO)[C@H](O)[C@H](O)[C@H]1O	steady-state kinetics		pH 6, 50 °C		kcat	14.6 ± 1.2 s⁻¹
AUUCUUUUC (ssRNA)	U2AF2	sequencing of bound RNA	RNA	motif only		Kd	2250 nM
B10 (enzyme)	N[C@@H](CS)C(=O)O	steady-state kinetics		pH 7.5, 37 °C		kcat	1.01 s⁻¹

For quick reference, copied from above:
Molecule	tested on	assay	system	conditions	scale	measurement	value
B8 (proteasome subunit alpha-8)	CYB5R4 knockout human cells	PP6 interaction, 3xFLAG-PP6C IP-MS		concentration not given	baseline: CYB5R4 KO over parental	log2 fold change	1.08
B3 (enzyme)	NC(=O)C1=CN([C@@H]2O[C@H](COP(=O)(O)OP(=O)(O)OC[C@H]3O[C@@H](n4cnc5c(N)ncnc54)[C@H](OP(=O)(O)O)[C@@H]3O)[C@@H](O)[C@H]2O)C=CC1	steady-state kinetics		pH 7, 30 °C, apparent		kcat	54 ± 2 s⁻¹
